# Assay results collected from several papers.
# Parts stem from different laboratories: compare values within a part only. Positions count from the first letter of the parent shown.
# UniProt Q04771, sequence (whole entry, looked up): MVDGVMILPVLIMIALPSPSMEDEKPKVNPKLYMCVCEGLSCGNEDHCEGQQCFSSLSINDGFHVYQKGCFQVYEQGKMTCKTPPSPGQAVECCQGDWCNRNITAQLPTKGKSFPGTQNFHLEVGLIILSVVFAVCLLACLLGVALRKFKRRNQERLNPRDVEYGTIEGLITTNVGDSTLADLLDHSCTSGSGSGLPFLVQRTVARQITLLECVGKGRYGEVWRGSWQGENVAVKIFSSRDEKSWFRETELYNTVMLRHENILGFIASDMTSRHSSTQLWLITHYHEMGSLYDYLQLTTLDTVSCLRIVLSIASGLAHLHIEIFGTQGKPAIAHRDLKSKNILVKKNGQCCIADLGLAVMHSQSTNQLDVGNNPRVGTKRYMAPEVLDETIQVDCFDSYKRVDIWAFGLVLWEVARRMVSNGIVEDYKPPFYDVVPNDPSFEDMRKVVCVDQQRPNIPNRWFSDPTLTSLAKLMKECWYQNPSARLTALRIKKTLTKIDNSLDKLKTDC

# Block 1 — technique: DHFR PCA, deep sequencing; sample: yeast; together with: (+)-ABA 4.8 µM; reference: wild-type fitted maximum; reading: higher = stronger binding
# Target: ABI1, truncated, D143A, DHFR fusion (Arabidopsis thaliana)
# Notes: methotrexate growth selection, single substitutions
# Starting sequence: PYL1, truncated, DHFR fusion (Arabidopsis thaliana); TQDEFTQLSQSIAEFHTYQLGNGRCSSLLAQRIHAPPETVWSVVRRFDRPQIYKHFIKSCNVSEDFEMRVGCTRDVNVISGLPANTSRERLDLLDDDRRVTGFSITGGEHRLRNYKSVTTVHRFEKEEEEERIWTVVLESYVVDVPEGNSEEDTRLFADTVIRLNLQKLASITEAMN
Substitution,relative binding score
S59D,70.4%
G148K,16%
T17W,8.86%
F103M,7.62%
H34C,80.9%
K126I,71.4%
R98K,82.7%
S171A,83.5%

# Block 2 — technique: protein-binding microarray; form: hairpin DNA; sample: in vitro; concentration: not given; reference: not given; reading: higher = stronger binding
# Target: Homeobox protein Hox-B13, full length (HOXB13, Homo sapiens, UniProt Q92826, residues 1-284)
# UniProt Q92826, sequence (whole entry, looked up): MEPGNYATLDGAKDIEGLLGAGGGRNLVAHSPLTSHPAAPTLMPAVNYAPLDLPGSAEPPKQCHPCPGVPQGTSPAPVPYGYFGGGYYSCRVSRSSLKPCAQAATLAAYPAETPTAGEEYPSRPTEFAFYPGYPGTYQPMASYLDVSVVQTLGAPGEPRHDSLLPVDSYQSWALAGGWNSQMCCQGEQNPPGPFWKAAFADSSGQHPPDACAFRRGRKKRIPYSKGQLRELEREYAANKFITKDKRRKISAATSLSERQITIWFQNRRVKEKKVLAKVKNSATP
# Notes: whole hairpin DNA, median over replicate spots
Sequence,median fluorescence
GAGGCCGTTTTACCGGGGCCTCCTGGCCCCGGTAAAACGGCCTCACACTC,4280 a.u.
GAGGCCGTTTTACGTGGGCCTCCTGGCCCACGTAAAACGGCCTCACACTC,4350 a.u.
GAGGCCCTTTTATTGGGGCCTCCTGGCCCCAATAAAAGGGCCTCACACTC (5mC at 7),4760 a.u.
GAGGCCGTTTTACGCGGGCCTCCTGGCCCGCGTAAAACGGCCTCACACTC (5mC at 29),4490 a.u.
GAGGCCGTTTTATCGGGGCCTCCTGGCCCCGATAAAACGGCCTCACACTC (5mC at 30),4410 a.u.
GAGGCCGTTTTATTGGAGCCTCCTGGCTCCAATAAAACGGCCTCACACTC,5210 a.u.
GAGGCCCGTTTACGAGGGCCTCCTGGCCCTCGTAAACGGGCCTCACACTC (5mC at 7 37),5120 a.u.
GAGGCCGTTTTGCGAGGGCCTCCTGGCCCTCGCAAAACGGCCTCACACTC (5mC at 33),4300 a.u.

# Block 3 — technique: RNA Bind-n-Seq; form: RNA; sample: in vitro; concentration: not given; reference: input RNA pool; reading: higher = stronger binding
# Target: RING finger protein unkempt homolog, zinc fingers 1-6, GST-SBP tag (UNK, Homo sapiens, UniProt Q9C0B0, residues 30-357)
# UniProt Q9C0B0, sequence (30-357, looked up): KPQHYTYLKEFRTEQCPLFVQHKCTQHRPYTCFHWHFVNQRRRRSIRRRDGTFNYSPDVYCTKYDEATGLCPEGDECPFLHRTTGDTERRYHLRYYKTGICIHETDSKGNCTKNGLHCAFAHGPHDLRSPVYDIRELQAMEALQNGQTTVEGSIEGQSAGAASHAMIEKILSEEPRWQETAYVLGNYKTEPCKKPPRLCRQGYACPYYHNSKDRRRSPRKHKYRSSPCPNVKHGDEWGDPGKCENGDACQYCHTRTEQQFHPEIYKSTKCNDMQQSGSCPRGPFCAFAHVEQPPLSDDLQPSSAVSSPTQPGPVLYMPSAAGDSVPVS
# Notes: RNA with constant flanks, human and mouse sites, ends assumed
# All sequences stand within: GGGAGUUCUACAGUCCGACGAUC … CAACAGAGGAUUGAGCAUCA
Sequence,bound/input enrichment
UGUUUCUUCUGCAUCUGGAAGGGCGUCAGGUCCACUGGGAAGGUCGUCUACUUCACAGCCACUUUUCCAUUCGCCAUGCUCCUGGUGCUGCUGGUCCGAGGGCUGACGCUGCCGGGCGCG,0.106 ratio
GGCUGGCCCCAGUCCCAAGGAACAAGAGAUGGUCAAGUCGCUAGAGACAUAUCAGGGGACAUUAGGAUUGGGGAAGACACUUGACUGCUAGAAUCAGAGGUUGGACACUAUACAUAAGGA,0.413 ratio
AUAAAGCAGCUGGUGUCUGGGGCAGACACACUGAACCUUGUUGCUGAAAUCCUCAAGUCUAUCGACAGAAUUAGUGAAGUUAAAGAUGAGGUGGACUCUUGAGACGCUCUACCUGCCACC,0.616 ratio
CUGAAUCAUUUUGUUUGUUAUCUGUCUGUCUCUCUGUCUGUCUGUUUGUAUUUUGAGUUAUGUGAAUAUAAGGGUAGGUAUGUGCAGCUGAGGGAAGUUGUCUGGAGAGGACAGAAAGAG,0.344 ratio
CCUGGGGAAGUAACAGAAACUGAAGUUAUUGCUUUAGGCUUACCUUUUGGUAAGGUGACCAACAUCCUUAUGCUGAAAGGAAAAAAUCAGGCAUUUUUGGAACUAGCAACCGAGGAAGCA,0.222 ratio
GACCAUCUAUACAUACACCAUCUUCAAAGAGACCAUCAAGACCCUAUCUCUGAGGAGACGGCAAGCAUCUUUCCUCCACGAUGCAUGCAAUUUUGGGGAAAUAUAUGUGUGGCUCUCCUA,0.243 ratio
ACAGAUAAAGACGCAACAUGAAAGACUUGUAAGUUAAGUCUCAUCUUUCUCUGUGAAAAGACAGACUGAGGGAAAAUUUAGGAAACAAAGUAUUUCCUCUGAACAGUCAUUGAUUCUUCA,0.454 ratio
ACAAGAGAAGGAUCAUUCCGUGUCACAACAGCCACUGAACAAGCAGAAAGAGAGGAGAUCAUGAAACAAAUGCAAGAUGCCAAGAAAGCUGAAACAGAUAAGAUAGUCGUUGGUUCAUCA,0.239 ratio

# Other studies, line by line
Compound,target,assay,setting,scale,measurement,value
O=S(=O)(c1cccc2cnccc12)N1CCCNCC1,"Activin receptor type-1 (ACVR1, Homo sapiens, UniProt Q04771)","enzyme activity, inhibitor",0.5 µM,reference: control,remaining activity,96.5%

# Some of these lines once more (block 2):
Sequence,median fluorescence
GAGGCCGTTTTATTGGAGCCTCCTGGCTCCAATAAAACGGCCTCACACTC,5210 a.u.
GAGGCCCGTTTACGAGGGCCTCCTGGCCCTCGTAAACGGGCCTCACACTC (5mC at 7 37),5120 a.u.
GAGGCCGTTTTGCGAGGGCCTCCTGGCCCTCGCAAAACGGCCTCACACTC (5mC at 33),4300 a.u.
